Measured values collected from several papers.
Parts stem from different laboratories: compare values within a part only. Several values in a cell are separate wells, animals, samples, runs or records.
Sequence of UniProt P10721 (whole entry, unmodified, looked up): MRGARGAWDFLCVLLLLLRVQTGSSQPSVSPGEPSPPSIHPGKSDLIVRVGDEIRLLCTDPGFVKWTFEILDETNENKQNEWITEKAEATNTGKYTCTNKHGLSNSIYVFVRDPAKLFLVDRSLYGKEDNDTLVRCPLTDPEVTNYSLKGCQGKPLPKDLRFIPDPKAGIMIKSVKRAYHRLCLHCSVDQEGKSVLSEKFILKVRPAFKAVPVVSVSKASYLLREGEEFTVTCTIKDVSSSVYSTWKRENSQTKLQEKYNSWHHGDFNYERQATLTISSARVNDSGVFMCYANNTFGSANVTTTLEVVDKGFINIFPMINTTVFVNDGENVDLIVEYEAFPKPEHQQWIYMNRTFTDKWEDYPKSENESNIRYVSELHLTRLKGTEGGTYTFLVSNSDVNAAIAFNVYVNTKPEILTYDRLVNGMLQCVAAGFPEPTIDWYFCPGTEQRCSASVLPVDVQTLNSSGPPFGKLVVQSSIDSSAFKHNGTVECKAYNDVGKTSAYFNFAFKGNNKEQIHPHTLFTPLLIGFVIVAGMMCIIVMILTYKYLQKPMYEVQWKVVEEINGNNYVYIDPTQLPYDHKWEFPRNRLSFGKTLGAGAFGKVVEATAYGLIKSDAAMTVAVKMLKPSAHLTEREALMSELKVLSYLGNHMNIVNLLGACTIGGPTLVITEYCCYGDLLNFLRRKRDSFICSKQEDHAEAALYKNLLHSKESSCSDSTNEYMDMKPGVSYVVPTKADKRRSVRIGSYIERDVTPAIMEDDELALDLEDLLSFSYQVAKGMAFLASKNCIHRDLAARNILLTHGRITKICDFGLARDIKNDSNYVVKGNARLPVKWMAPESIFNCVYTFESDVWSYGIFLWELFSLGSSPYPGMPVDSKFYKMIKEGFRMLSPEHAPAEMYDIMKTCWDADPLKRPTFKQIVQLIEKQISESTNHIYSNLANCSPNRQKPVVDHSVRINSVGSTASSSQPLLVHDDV
Sequence of UniProt P0C264 (whole entry, looked up): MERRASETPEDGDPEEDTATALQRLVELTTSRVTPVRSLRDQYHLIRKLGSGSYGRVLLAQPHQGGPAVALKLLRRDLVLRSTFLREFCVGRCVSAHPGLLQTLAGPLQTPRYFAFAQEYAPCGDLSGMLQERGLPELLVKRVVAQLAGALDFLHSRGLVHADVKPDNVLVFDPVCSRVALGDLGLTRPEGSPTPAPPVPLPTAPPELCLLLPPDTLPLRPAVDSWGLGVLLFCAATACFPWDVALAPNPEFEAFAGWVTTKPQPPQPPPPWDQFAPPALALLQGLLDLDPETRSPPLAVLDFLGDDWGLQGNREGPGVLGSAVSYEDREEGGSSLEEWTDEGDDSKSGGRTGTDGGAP
Sequence of UniProt O14578 (whole entry, looked up): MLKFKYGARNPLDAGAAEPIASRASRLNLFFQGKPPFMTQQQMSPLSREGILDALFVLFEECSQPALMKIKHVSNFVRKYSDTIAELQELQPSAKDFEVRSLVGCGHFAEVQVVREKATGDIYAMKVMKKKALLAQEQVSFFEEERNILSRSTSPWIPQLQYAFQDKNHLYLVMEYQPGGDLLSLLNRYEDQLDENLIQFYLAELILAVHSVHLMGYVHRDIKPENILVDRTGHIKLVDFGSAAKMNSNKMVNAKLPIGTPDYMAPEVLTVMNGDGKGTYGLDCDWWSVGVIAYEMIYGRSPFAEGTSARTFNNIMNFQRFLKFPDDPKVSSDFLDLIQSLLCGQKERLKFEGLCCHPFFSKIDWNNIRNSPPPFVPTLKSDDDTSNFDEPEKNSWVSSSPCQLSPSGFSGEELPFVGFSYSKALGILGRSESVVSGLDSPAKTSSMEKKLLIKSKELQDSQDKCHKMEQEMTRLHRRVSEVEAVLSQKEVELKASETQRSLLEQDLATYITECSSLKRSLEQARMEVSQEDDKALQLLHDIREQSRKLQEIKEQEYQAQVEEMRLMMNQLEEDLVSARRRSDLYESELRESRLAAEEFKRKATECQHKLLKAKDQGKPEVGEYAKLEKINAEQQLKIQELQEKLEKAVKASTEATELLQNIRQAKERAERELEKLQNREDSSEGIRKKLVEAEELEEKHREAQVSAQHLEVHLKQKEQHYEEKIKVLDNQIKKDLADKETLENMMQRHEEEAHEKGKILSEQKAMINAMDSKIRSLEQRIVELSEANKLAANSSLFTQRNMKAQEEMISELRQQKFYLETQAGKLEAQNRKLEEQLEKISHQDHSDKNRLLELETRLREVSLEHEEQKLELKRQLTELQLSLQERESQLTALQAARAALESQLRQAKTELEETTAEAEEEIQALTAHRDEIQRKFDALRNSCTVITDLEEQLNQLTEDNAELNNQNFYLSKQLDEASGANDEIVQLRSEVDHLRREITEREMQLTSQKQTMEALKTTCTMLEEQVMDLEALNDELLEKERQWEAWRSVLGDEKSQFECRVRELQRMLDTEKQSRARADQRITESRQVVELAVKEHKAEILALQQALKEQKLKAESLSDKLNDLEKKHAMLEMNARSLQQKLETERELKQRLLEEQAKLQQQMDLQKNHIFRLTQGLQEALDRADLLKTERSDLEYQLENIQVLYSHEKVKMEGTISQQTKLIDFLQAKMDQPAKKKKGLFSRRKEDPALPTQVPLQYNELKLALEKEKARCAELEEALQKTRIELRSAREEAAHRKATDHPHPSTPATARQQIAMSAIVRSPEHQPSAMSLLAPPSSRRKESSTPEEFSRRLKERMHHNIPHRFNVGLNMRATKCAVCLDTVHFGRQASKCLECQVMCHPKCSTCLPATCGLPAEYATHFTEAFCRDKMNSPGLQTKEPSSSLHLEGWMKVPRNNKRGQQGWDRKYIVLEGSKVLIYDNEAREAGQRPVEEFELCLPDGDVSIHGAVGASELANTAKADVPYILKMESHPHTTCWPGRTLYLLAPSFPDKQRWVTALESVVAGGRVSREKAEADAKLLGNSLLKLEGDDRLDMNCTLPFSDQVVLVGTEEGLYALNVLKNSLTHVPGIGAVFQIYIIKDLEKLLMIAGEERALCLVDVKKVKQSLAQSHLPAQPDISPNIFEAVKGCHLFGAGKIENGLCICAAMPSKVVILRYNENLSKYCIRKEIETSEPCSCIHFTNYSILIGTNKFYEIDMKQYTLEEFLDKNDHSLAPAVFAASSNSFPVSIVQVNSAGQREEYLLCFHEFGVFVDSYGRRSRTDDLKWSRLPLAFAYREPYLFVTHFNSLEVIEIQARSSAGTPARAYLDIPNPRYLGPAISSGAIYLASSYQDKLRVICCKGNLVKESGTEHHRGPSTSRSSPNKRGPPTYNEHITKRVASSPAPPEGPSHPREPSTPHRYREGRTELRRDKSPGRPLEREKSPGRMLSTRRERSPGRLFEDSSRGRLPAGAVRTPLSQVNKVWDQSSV
Sequence of UniProt Q07912 (whole entry, looked up): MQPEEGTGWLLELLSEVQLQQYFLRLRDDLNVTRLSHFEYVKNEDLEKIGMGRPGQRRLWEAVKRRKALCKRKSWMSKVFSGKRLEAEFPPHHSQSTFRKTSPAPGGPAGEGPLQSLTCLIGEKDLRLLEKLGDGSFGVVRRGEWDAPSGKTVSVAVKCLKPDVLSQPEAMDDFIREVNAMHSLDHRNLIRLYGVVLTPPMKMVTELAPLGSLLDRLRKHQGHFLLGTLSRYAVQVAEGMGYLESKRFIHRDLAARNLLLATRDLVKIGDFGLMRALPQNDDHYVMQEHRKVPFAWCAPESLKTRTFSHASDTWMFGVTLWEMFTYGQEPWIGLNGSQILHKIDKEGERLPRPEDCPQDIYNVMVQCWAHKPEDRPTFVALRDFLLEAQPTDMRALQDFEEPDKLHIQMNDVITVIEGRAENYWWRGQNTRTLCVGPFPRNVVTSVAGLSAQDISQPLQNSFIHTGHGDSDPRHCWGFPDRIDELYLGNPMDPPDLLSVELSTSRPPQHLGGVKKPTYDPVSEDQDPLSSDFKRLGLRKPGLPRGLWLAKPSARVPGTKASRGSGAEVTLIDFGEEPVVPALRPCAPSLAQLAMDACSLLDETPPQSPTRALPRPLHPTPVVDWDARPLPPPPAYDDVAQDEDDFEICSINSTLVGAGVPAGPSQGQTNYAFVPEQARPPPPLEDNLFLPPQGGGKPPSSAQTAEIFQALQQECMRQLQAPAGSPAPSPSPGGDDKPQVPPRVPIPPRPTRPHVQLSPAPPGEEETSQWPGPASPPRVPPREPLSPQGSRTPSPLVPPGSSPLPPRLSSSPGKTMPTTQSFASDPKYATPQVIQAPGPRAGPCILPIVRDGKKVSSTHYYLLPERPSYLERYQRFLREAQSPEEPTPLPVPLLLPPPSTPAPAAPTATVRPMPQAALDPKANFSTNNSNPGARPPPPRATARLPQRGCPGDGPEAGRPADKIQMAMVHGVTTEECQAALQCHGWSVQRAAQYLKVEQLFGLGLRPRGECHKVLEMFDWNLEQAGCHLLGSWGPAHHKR

Series 1
Target: Death-associated protein kinase 3 (DAPK3, Homo sapiens, UniProt O43293)
Sequence of UniProt O43293 (whole entry, looked up): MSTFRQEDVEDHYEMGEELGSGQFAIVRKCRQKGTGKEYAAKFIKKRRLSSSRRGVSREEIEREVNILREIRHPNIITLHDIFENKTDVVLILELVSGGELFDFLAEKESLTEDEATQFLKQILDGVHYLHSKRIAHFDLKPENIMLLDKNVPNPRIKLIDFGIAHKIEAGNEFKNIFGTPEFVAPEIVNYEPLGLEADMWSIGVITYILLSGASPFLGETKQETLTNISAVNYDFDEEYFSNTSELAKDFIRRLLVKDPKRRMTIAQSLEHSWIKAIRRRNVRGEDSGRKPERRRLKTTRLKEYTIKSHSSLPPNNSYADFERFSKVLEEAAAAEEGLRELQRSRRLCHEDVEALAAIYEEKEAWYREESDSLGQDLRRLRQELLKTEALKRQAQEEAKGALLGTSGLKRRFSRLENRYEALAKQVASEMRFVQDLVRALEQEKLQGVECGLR
Read-out: enzyme activity
Action: inhibitor
Tested at: 0.5 µM
Reference: control
SMILES | remaining activity [%]
CC(=O)c1ccc(N2CCOCC2)cc1O | 98.1
O=C1NC(=O)C(c2c[nH]c3ccccc23)=C1c1c[nH]c2ccccc12 | 104
CC[n+]1c(/C=C/N(C)c2ccccc2)n(-c2ccccc2)c2ccc(-c3nc4ccccc4s3)cc21 | 95.4
Cc1cc(Nc2nc(-c3ccccc3)nc3ccccc23)n[nH]1 | 57.5
NC(=O)c1ccc(N(C(N)=O)c2c(F)cccc2F)nc1-c1ccc(F)cc1F | 107
Fc1ccc(-c2nc3n(c2-c2ccncc2)CCS3)cc1 | 100
CC#CC(=O)Nc1cc2c(Nc3ccc(F)c(Cl)c3)ncnc2cn1 | 97.8
COc1cc(Nc2c(C#N)cnc3cc(OCCCN4CCN(C)CC4)c(OC)cc23)c(Cl)cc1Cl | 107
N#CC(=C(N)Sc1ccc(N)cc1)c1ccccc1C(F)(F)F | 102
Cc1cncc2cccc(S(=O)(=O)N3CCCN(C(=O)CN)C[C@@H]3C)c12 | 90.4
CC(C)(C)n1nc(Cc2cccc3ccccc23)c2c(N)ncnc21 | 105
CCc1[nH]c(-c2ccc(OC)cc2)nc1-c1ccncc1 | 95.8
Nc1nccc(-c2c(-c3ccc(F)cc3)ncn2C2CCNCC2)n1 | 96.5
CCCC(=O)Oc1ccc2[nH]c(C(=O)c3cc4ccccc4[nH]3)cc2c1 | 88.5
O=S(=O)(NCCNC/C=C/c1ccc(Br)cc1)c1cccc2cnccc12 | 97.4
Cc1ccc(NC2=CC(=O)c3sc(C)nc3C2=O)cc1 | 104
Oc1ccc(Nc2nc(-c3ccc(Cl)cc3)cs2)cc1 | 103
COc1ccc(S(=O)(=O)N(CCO)c2ccccc2CN(C)CC=Cc2ccc(Cl)cc2)cc1 | 101
Nc1ncnc2c1cnn2-c1ccccc1 | 103
O=C1Cc2c([nH]c3ccc([N+](=O)[O-])cc23)-c2ccccc2N1 | 103
Nc1nc(Nc2ccc(S(N)(=O)=O)cc2)nn1C(=O)c1c(F)cccc1F | 99.4
CSc1nc(-c2ccnc(N[C@@H](C)c3ccccc3)c2)c(-c2ccc(F)cc2)[nH]1 (racemic) | 94.3

Series 2
SMILES: CCC(=N\O)/C(C)=C/c1ccc(F)cc1
Read-out: cell-free assay
Technique: competition with immobilised ligand
Tested at: 1 µM
target | remaining binding [%]
SNRK (Homo sapiens, UniProt Q9NRH2) | 100
Ribosomal protein S6 kinase alpha-4, C-terminal kinase domain (RPS6KA4, Homo sapiens, UniProt O75676) | 81
KIT (Homo sapiens, UniProt P10721) | 100
NEK10 (Homo sapiens, UniProt Q6ZWH5) | 95
PIK3CD (Homo sapiens, UniProt O00329) | 72
RAF1 (Homo sapiens, UniProt P04049) | 91
EGFR (Homo sapiens, UniProt P00533, G719S) | 67
CLK4 (Homo sapiens, UniProt Q9HAZ1) | 100
DYRK1A (Homo sapiens, UniProt Q13627) | 91
KIT (Homo sapiens, UniProt P10721, L576P) | 100
SBK3 (Homo sapiens, UniProt P0C264) | 100
NEK11 (Homo sapiens, UniProt Q8NG66) | 100
STK4 (Homo sapiens, UniProt Q13043) | 78
CIT (Homo sapiens, UniProt O14578) | 70
STK3 (Homo sapiens, UniProt Q13188) | 100
TNK2 (Homo sapiens, UniProt Q07912) | 85
CDKL5 (Homo sapiens, UniProt O76039) | 82

Series 3
Species: mouse
Sample: microsomes or S9
Tested at: 2 µM
Time: 0.5 h
SMILES | remaining compound [%]
CC1CN(C(=O)C(C)(C)C)CC(C)N1C(=O)[C@@H]1C[C@H](C)CC(=O)N1 (some centres unmarked) | > 100
O=C(c1ccc2ncccc2c1)c1cncc(Br)c1Cl | 0
Cc1nn2c(=O)c(CCC(=O)NC(C)(C)c3noc(C(C)(C)C)n3)c(C)nc2[nH]1 | 86.5
COC(=O)C1=C(\N2CCOCC2)CCCC/C=C\1C(=O)OC | 5.33
N[C@@H](CC(=O)N1CCCCCN1C(=O)CN1CCc2ccccc2C1)Cc1cc(F)c(F)cc1F | 6.47
COc1cc(NC(=O)NC2CCN(c3nc4ccccc4n(CC(C)C)c3=O)CC2)cc(OC)c1 | 73.8
O=C(Cn1cnc2ccccc21)NCc1n[nH]c(=O)c2ccccc12 | > 100
COc1ccc(S(=O)(=O)N(C)c2ccc(C(=O)Nc3ccccc3-c3ccccc3)cc2)cc1 | 0.389
CC1CN(C)C(c2ccccc2)C(C)C12NC(=O)N=C2O (centres unmarked) | 58.1
COc1ccc2nc(C3=CCCN(C)C3)n(C)c2c1 | 74.5
O=c1c(/C=N/Nc2nc3ccccc3s2)c(C(F)(F)F)[nH]n1-c1nc2ccccc2s1 | > 99
CN(CC#N)C(=O)C1=C(c2ccccc2)OCCS1 | 0.561
CC1(C)C(C(=O)O)C1C(=O)Nc1c[nH]c(=O)[nH]c1=O (centres unmarked) | 51.7
Cc1cc(-c2c3ccccc3c(Br)c3sc(C)c(C)c23)cc(C)c1O[C@H](Cc1ccccc1)C(=O)O | > 99
COc1ccc(C(Nc2nc(C)cc(C)n2)c2c(NC(=O)c3ccco3)sc(C)c2C)c(OC)c1 (centres unmarked) | 0.0553
CCc1nn2c(=O)c(CC(=O)OC)c(C)[nH]c2c1-c1ccccc1 | 84.6
Cn1cc(C2(C)CN(Cc3nc(-c4cccs4)n[nH]3)CCO2)cn1 (centres unmarked) | 60.2
CCOC(=O)Cn1c(=O)n(-c2cccc(O)c2)c2ncnc(N)c21 | 75.9

Series 4
Cell line: A-375
Tested at: 100 µM
Time: 18 h
SMILES | viability
C[N+]1(C)CCCC(OC(=O)C(O)(c2ccccc2)c2ccccc2)C1 (centres unmarked) | 100%
COC(=O)Nc1nc2ccc(C(=O)c3ccccc3)cc2[nH]1 | 46.2%
N=C(N)NC(=O)c1nc(Cl)c(N)nc1N | 94.3% and 85.1%
N=C(N/N=C/c1ccc(Cl)cc1)N/N=C/c1ccc(Cl)cc1 | 9.63%
CCN(CC)C(=O)c1ccc(O)c(OC)c1 | 86.4%
Nc1nc2c(ncn2CCC(CO)CO)c(=O)[nH]1 | 78.6%
O=C(O)c1cc(-c2ccc(F)cc2F)ccc1O | 91%
CC1(C)[C@@H](OC(=O)CCC(=O)O)CC[C@]2(C)[C@H]3C(=O)C=C4[C@@H]5C[C@@](C)(C(=O)O)CC[C@]5(C)CC[C@@]4(C)[C@]3(C)CC[C@@H]12 | 83.7%
O=C(O)[C@H](CC(=O)N1C[C@H]2CCCC[C@H]2C1)Cc1ccccc1 | 110%
COc1ccc(CN2CCN(C(c3ccc(F)cc3)c3ccc(F)cc3)CC2)c(OC)c1OC | 50.8%
O=C(CCCCCCC(=O)Nc1ccccc1)NO | 64.5%
